Results gathered from unrelated publications.
A part holds a random share of what one study measured. Positions count from the first letter of the parent shown.

Series 1
Target: Probable WRKY transcription factor 33, C-terminal DNA-binding domain (WRKY33, Arabidopsis thaliana, UniProt Q8S8P5, residues 346-449)
Method: DNA-protein interaction ELISA
Form: double-stranded DNA, one strand shown
Matrix: in vitro, bacterial lysate
Tested at: not given
Notes: whole dsDNA probe, crude lysate protein
Baseline: highest signal in screen
Reading: higher = stronger binding
Target sequence (chain): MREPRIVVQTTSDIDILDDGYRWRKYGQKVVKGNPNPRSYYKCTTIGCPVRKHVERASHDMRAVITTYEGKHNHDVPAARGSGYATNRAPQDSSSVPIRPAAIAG
Sequence | relative absorbance
AAAAAAAACTGTCGCCCCCGGCTGGCAAAA | 39.3 % of maximum
AAAAAATAATATCGATACTCATGCCCAAAA | 33.2 % of maximum
AAAAAAGCTGTCACTGTAGTCGGTCCAAAA | 38.9 % of maximum
AAAAAAAAGTGCCAACGTTCAAGAAAAA | 42.1 % of maximum
AAAAAACTCGTACATCTATCGCTACGAAAA | 29.6 % of maximum
AAAAAATCCTGTTTGCGTTTGATTTTAAAA | 47.7 % of maximum
AAAAAATATTCCGCTTTTGGCTGAATAAAA | 36.7 % of maximum
AAAAAACTCTTAAGGAAAGTTCCGACAAAA | 41.3 % of maximum

Series 2
Change: H34T
Target: ABI1, truncated, D143A, DHFR fusion (Arabidopsis thaliana)
Method: DHFR PCA, deep sequencing
Matrix: yeast
Notes: methotrexate growth selection, single substitutions
Baseline: wild-type fitted maximum
Reading: higher = stronger binding
Parent: PYL1, truncated, DHFR fusion (Arabidopsis thaliana); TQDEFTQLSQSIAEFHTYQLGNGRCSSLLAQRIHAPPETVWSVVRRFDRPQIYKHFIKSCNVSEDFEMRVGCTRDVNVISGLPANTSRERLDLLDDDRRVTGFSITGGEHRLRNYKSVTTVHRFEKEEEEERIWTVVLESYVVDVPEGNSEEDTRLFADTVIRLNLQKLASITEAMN; partner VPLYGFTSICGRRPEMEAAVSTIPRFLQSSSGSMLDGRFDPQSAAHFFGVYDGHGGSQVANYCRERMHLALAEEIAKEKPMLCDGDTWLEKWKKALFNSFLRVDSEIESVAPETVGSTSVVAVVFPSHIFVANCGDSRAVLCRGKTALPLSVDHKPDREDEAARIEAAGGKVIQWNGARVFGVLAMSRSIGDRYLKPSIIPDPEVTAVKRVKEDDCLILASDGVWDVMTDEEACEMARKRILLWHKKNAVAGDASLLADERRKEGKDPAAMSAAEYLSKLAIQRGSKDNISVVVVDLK
setting | relative binding score
together with: (+)-ABA 4.8 µM | 39.8%
together with: (+)-ABA 200 µM | 86.2%
together with: (+)-ABA 0.39 µM | 4.43%
together with: (+)-ABA 2500 µM | 93.8%
together with: (+)-ABA 0 µM | -2.71%
together with: (+)-ABA 1.4 µM | 12.1%

Series 3
Target: Sal-like protein 4, full length isoform B (SALL4, Homo sapiens, UniProt Q9UJQ4-2, residues 1-616)
Method: universal PBM
Form: double-stranded DNA, one strand shown
Matrix: in vitro
Tested at: not given
Notes: 8-mer, flanks averaged, mean of replicates
Reading: higher = stronger binding
Target sequence (chain): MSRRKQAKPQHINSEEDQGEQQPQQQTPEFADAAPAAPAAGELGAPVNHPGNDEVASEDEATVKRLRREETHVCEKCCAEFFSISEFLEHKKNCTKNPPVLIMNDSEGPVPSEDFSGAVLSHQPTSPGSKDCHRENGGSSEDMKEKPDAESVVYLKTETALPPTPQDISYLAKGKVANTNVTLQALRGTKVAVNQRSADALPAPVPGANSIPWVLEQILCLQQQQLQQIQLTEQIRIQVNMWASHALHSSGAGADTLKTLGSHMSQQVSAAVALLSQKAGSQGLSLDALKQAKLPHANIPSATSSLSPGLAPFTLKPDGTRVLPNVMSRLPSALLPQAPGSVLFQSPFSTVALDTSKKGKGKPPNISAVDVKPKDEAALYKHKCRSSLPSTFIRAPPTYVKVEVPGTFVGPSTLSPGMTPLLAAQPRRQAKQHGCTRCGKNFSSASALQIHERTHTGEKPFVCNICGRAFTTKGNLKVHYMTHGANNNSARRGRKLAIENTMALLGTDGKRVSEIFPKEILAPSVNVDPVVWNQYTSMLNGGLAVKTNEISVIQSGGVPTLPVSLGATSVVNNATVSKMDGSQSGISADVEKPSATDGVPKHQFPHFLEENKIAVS
Sequence | E-score
CGACCTAA | 0.0357
AATCCGGC | -0.236
GCGACCTA | -0.185
CAAGGGTA | -0.0585
GAGGTGAA | -0.0167
CCAGGCTA | -0.257
CGTGTGAC | -0.137
GTCCTCGA | -0.199

Single results of other studies
Parent: viral docking peptide; KGVKRKLFAEDSS
Change | target | assay | system | setting | scale | measurement | result
KGVKRKLFAEDKS [S12K] | CCNA2, cyclin fold, Cln2 fusion (human) | yeast growth competition, sequencing | yeast | strong parent motif | baseline: not given, higher = stronger binding | normalised enrichment score | 6.14

A few entries again (series 1):
Sequence | relative absorbance
AAAAAATCCTGTTTGCGTTTGATTTTAAAA | 47.7 % of maximum
AAAAAATATTCCGCTTTTGGCTGAATAAAA | 36.7 % of maximum
